Assay results gathered from unrelated publications.
Each numbered part is a random draw from the data of one study; scales do not carry over between parts.

Study 1
Target: RNA binding protein fox-1 homolog 2, RRM domain, GST-SBP tag (RBFOX2, Homo sapiens, UniProt O43251-10, residues 100-194)
Method: RNA Bind-n-Seq
Form: RNA
Sample: in vitro
Concentration: 365 nM
Notes: natural RNA segment, single round, ends assumed
Reference: no-protein control
Reading: higher = stronger binding
Shared flanks, not repeated: GGGAGUUCUACAGUCCGACGAUC … UGGAAUUCUCGGGUGCCAA
Target sequence (chain): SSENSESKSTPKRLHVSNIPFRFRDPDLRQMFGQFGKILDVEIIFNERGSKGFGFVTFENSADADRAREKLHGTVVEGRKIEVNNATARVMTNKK
Strand	RBNS enrichment (R)
UUAAUCCUCACAAUAGCCCUGUAAGGUUGCACCUAUUAUCUCCACUUUGACCACGAAGAAACGGAGACUCAGAGAGUUUGUAUCCUAUGUGUAAGAUCACACAGUUGUCA	0.443
AUCAUUGCAUACAACAGCACAGCAAAUUGCGCCAAGUCAGUGUGUGAAUGGGAAUUAGCAAUGCACGCUUGCAGGCUCUUUUUCCAGGAACCAGGCUGUAACAUUGACCG	1.1
CAACUUUGCCUUUUAUGUAUUCUUACAUAGUUUCCUCUUGAAGAAAAAAAAAGCAGAGUUUUUGUUUUUCAACCCUUUAUGUUUGUUUUGUUUUAUUCUUAAAUAAGCAA	0.766
GUUUCCAAGAUGUCACGAGAAAAGCCCCAGAUGUGUACAGCACUCUAAGCAUUAACAGUCUCCCAGAAUCAAUAAUCGGUGGCAACAUAUCUCUGUAAAAACAAACACUG	0.45
AAUUCAGAGGCUACAGUAUAUCUACAUUCAUGUGGUGUUCAUUGGUAAUUUCAGUAUAUGUAAUGUGAUUUUAGACUGUGAAAUUUUAUCUCACAUUAAUAUCUGAAGUG	0.28
CUGAGGGUAUUAUGUAACCCUUCAGAAAACCACUUUGCCUCAUUGUGUUUCAGGAUUAACUUCUACAUGCCUUUAAGUUUUUCUGAGUAUCAGCAUAUCAUUUAGACAUU	0.37

Study 2
Target: Prothrombin, mature alpha-thrombin (F2, Homo sapiens, UniProt P00734)
Method: aptamer microarray, sandwich
Form: DNA with 2'F-ANA
Sample: in vitro
Concentration: 200 nM
Notes: whole 15-mer aptamer, many near background
Added: Cy3 exosite-II aptamer, 400 nM
Reading: higher = stronger binding
Strand: GGTTGGTGTGGTTGG
Modification	mean fluorescence intensity
2'F-ANA at 1 4 6 10 12 13 14 15	51.5 a.u.
2'F-ANA at 3 4 5 6 7 8 11 13 14	54.9 a.u.
2'F-ANA at 1 7 9 10 11 12 13 14 15	46.8 a.u.
2'F-ANA at 1 7 9	228 a.u.
2'F-ANA at 3 4 5 7 8 12 15	240 a.u.
2'F-ANA at 1 6 10 12	70.7 a.u.
2'F-ANA at 2 5 6 8 11 13 15	57.8 a.u.
2'F-ANA at 3 4 5 10 13 15	66.9 a.u.
2'F-ANA at 1 2 5 7 8 10 12 15	49.4 a.u.

Study 3
Target: Interferon regulatory factor 5, full length, phosphomimetic (IRF5, Homo sapiens, UniProt Q13568-2, residues 1-514, S451D/S453D/S456D/S462D)
Method: protein-binding microarray
Form: double-stranded DNA, one strand shown
Sample: in vitro
Concentration: 940 nM top
Notes: 60-bp whole probe
Added: salmon DNA 0.4 mg/ml
Reference: random background probes
Reading: higher = stronger binding
Shared flanks, not repeated: GCCTAGCAC … GTCTTGATTCGCTTGACGCTGCTG
Strand	fitted relative affinity [z-score]
TTTTTTTCCTAATTGAACCCGTGCTAG	1.14
TACGAACTGAGTCTCGAGACGTGCTAG	1.08
AGCTCTTTCGTTACTTCCTCGTGCTAG	2.91
TCATTTTACTTTCTGAAACTGTGCTAG	1.53
GACGGTTGCGGTATCGGGACGTGCTAG	2.2
TTAGGACTGGGGACAGGGTTAGTGCTA	-0.0454
GCAGACTACCTATGAGTATCGTGCTAG	0.451
TTAGGTATCAGTTTCGATTAGTGCTAG	9.13

Single results of other studies
Substance	target	assay	system	conditions	scale	endpoint	value
PhoQ, residues 284 288 289 292 302 303 ASSHFY	PhoP, residues 12 14 15 18 19 NMSFL (Escherichia coli, UniProt P23836)	Sort-seq, measured: YFP reporter	E. coli	PhoQ-PhoP variant library, added: 10 µM Mg2+	reference: high Mg2+ state, higher = stronger signaling	fold induction	10.3

A few entries again (study 2):
Modification	mean fluorescence intensity
2'F-ANA at 3 4 5 10 13 15	66.9 a.u.
2'F-ANA at 1 7 9	228 a.u.
